Measurements collected from several papers.
± marks the error that the study gave.
Cell line: DU-145

C1=CCCC=CCC1.C1=CCCC=CCC1.[Cl][Hg-]([Cl])[Cl].[Cl][Hg-]([Cl])[Cl].[Pt+][c]1ccccc1P(=Nc1ccccc1)(c1ccccc1)c1ccccc1.[Pt+][c]1ccccc1P(=Nc1ccccc1)(c1ccccc1)c1ccccc1  IC50 (cell growth or viability, MTT; 24 h): 0.93 µM
CC1(CCCOC2C(O)C(O)OC(CO)C2O)C(=O)[O][Pt][O]C1=O.NC1CCCCC1N (mixture of isomers)  IC50 (cytotoxicity, MTT; 7.5 h plus 64 h recovery): 26 ± 4 µM
O=C(C[P+]([Au-][Cl])(c1ccccc1)c1ccccc1)[O][Ti+2][O]C(=O)C[P+]([Au-][Cl])(c1ccccc1)c1ccccc1.c1cc[cH-]c1.c1cc[cH-]c1  IC50 (cell viability, XTT; 24 h): 38.6 µM
O=C(Nc1ccc(Br)cc1)c1cc(Br)cc(Br)c1O  IC50 (cell growth or viability, resazurin; 72 h): 6.45 µM
O=C(N=P12CN3CN(CN(C3)C1)C2)c1cccc[c]1[Pd]([Br])([PH]12CN3CN(CN(C3)C1)C2)[PH]12CN3CN(CN(C3)C1)C2  IC50 (cell growth or viability, MTT; 24 h): 448 µM
O=C(N=P12CN3CN(CN(C3)C1)C2)c1ccccn1.[Cl][Au+][Cl].[O-][Cl+3]([O-])([O-])[O-]  IC50 (cell growth or viability, MTT; 24 h): 17.4 µM
C#CCCCC[C@H](C)C[C@@H](C)C(=O)N(C)[C@H](C(=O)N(C)[C@@H](Cc1ccccc1)C(=O)N1CCC[C@H]1C(=O)N1CCC[C@H]1C(C)=O)C(C)C  IC50 (cell growth or viability, SRB): 1 µM
CC1(CCCO[C@H]2O[C@H](CO)[C@@H](O)[C@H](O)[C@H]2O)C(=O)[O][Pt][O]C1=O.N[C@@H]1CCCC[C@H]1N  IC50 (cell growth or viability, MTT): 3.7 µM
C#CCCCC[C@H](C)C[C@@H](C)C(=O)N[C@@H](C)C(=O)N1CCC[C@H]1C(=O)N[C@H](C(=O)N[C@H](C(=O)N[C@H](C(=O)N[C@@H](Cc1ccccc1)C(=O)N1CCC[C@H]1C(=O)N1CCC[C@H]1C(C)=O)C(C)C)C(C)C)C(C)C  IC50 (cell growth or viability, SRB): 1 µM
CN(C)CC1C(=O)OC2C1CCC1(C)CC1CCC1(C)OC21 (centres unmarked)  IC50 (cell growth or viability, resazurin): 13.3 µM
CC1(CCCOC2C(CO)OC(O)C(O)C2O)C(=O)[O][Pt][O]C1=O.NC1CCCCC1N (mixture of isomers)  IC50 (cell growth or viability, MTT): 2.4 µM
CC[C@H](C)[C@@H]([C@@H](CC(=O)N1CCC[C@H]1[C@H](OC)[C@@H](C)C(=O)N[C@H](C)[C@@H](O)c1ccccc1)OC)N(C)C(=O)[C@@H](NC(=O)[C@@H](NC)C(C)C)C(C)C  IC50 (cell growth or viability, MTT; 72 h): 0.00108 µM
COC(=O)[C@H](C(C)C)N(C)C(=O)[C@H](C(C)C)N(C)C(=O)[C@@H]1CCCN1C(=O)[C@H](C)N(C)C(=O)OC(C)(C)C  IC50 (cell growth or viability, SRB): 3 µM
CC1(CCCOC2C(O)OC(CO)C(O)C2O)C(=O)[O][Pt][O]C1=O.NC1CCCCC1N (mixture of isomers)  IC50 (cell growth or viability, MTT): 2.8 µM
